Measurements collected from several papers.
Each numbered part is a random draw from the data of one study; scales do not carry over between parts. Values joined by “and” are separate records of one study, mostly repeats; a detail may differ.
UniProt P29376, sequence (whole entry, looked up): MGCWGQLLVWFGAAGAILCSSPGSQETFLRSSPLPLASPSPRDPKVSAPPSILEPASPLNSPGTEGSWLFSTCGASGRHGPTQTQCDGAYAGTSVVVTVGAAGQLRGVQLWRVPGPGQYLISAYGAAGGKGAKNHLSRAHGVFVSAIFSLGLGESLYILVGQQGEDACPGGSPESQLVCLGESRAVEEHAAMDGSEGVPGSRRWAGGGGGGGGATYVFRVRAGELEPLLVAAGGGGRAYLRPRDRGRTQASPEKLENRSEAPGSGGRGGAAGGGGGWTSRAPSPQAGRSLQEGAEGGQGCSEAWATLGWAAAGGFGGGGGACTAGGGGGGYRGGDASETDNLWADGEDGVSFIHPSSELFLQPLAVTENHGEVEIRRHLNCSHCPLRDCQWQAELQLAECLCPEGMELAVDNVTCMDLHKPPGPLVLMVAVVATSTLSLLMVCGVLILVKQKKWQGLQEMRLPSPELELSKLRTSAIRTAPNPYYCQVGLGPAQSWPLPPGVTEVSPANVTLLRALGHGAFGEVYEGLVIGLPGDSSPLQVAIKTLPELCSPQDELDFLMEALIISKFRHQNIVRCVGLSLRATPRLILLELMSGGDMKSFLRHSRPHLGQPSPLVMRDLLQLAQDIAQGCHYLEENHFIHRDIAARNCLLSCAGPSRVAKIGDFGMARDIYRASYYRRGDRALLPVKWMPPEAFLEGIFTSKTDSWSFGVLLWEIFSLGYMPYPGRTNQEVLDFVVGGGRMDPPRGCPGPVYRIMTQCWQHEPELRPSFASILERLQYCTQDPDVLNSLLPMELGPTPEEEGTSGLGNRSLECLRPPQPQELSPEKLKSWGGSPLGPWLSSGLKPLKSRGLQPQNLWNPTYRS
UniProt Q8N4C8, sequence (whole entry, looked up): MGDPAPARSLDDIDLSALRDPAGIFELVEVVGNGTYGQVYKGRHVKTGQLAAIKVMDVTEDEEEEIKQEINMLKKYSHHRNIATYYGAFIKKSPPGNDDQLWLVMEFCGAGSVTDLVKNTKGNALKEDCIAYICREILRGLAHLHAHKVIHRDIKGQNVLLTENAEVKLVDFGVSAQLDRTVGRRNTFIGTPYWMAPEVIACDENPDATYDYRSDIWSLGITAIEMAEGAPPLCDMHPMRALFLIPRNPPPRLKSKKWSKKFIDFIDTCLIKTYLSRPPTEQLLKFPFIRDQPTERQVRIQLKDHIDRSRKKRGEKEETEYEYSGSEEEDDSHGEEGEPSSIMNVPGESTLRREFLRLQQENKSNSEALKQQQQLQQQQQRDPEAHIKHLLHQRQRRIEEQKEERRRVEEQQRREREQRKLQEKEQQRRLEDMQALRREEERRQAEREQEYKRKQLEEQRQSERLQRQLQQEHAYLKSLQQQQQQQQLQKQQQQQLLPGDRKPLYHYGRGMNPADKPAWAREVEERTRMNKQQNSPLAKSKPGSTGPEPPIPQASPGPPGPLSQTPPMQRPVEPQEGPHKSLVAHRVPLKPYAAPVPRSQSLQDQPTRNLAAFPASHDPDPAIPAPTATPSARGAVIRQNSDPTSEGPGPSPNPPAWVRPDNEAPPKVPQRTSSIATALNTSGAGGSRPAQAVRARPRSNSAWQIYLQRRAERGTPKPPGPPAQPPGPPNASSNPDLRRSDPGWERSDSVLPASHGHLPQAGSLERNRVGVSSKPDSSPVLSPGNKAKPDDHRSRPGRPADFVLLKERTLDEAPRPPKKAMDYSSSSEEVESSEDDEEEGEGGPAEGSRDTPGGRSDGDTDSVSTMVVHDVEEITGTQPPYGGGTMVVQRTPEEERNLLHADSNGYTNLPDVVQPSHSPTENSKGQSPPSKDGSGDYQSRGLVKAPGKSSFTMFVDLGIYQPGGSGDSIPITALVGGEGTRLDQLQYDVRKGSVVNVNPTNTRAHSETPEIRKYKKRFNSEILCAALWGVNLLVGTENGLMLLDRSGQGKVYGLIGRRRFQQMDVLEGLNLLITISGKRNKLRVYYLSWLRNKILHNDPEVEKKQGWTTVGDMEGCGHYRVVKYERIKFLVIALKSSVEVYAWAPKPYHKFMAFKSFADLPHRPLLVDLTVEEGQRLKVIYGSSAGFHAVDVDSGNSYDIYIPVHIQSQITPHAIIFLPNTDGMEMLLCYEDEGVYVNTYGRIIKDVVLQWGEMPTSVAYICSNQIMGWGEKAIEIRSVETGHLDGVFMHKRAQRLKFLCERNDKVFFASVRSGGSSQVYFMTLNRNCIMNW

Sample 1
Structure (SMILES): C[C@@H]1CN(c2ccc(-c3cc(C(=O)NCCOCCOCCOCCOCCNC(=O)/C=C/c4[nH]cc(C(=O)N[C@@H](CC(N)=O)c5ccc(F)c(Cl)c5)c4-c4ccc(Cl)cc4F)ccc3F)cc2NC(=O)c2c[nH]c(=O)cc2C(F)(F)F)C[C@H](C)N1C
Read-out: thermal unfolding
Technique: differential scanning fluorimetry
Tested at: 5.5 µM
Direction: higher = more unfolded
DCAF1: DDB1- and CUL4-associated factor 1 (DCAF1, Homo sapiens, UniProt Q9Y4B6)
UniProt Q9Y4B6, sequence (whole entry, looked up): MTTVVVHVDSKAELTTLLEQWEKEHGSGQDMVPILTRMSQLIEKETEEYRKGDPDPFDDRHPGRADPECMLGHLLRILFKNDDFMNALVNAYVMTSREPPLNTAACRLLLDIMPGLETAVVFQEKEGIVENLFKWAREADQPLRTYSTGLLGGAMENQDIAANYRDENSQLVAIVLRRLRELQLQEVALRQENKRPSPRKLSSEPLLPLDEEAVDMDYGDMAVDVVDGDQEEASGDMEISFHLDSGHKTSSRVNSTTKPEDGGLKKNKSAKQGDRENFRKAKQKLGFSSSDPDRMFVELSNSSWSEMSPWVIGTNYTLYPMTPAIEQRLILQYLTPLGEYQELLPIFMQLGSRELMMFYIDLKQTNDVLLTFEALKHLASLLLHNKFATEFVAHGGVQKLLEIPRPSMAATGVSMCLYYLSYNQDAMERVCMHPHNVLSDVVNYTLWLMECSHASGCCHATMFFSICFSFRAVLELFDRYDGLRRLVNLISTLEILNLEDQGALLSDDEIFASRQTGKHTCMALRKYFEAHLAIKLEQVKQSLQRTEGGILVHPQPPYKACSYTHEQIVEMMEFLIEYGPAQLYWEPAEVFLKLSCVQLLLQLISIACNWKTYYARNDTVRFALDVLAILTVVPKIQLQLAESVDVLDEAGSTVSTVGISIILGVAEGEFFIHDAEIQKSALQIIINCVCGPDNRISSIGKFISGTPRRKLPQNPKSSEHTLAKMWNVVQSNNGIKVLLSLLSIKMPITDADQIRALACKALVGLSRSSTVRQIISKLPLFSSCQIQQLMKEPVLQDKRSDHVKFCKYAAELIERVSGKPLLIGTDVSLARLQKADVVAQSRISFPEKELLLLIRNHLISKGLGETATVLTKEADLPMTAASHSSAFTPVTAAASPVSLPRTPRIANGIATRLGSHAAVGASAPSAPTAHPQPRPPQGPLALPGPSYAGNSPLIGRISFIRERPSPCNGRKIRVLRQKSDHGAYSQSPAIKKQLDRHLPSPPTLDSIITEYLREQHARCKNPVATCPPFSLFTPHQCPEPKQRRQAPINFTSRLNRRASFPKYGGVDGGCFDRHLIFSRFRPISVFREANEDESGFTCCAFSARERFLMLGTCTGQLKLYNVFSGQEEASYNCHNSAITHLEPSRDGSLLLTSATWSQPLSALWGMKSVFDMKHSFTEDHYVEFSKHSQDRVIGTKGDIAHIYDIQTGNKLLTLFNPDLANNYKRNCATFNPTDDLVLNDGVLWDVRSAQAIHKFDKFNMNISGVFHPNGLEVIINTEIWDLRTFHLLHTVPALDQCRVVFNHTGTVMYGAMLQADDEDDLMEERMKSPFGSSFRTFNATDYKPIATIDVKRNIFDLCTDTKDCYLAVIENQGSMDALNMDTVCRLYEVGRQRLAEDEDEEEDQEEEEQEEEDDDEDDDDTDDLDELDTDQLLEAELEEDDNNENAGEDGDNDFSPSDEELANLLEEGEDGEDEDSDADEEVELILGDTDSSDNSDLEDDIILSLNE
WDR5: WD repeat-containing protein 5 (WDR5, Homo sapiens, UniProt P61964)
target | setting | SYPRO Orange fluorescence [a.u.]
DCAF1 | 44 °C | 12600
WDR5 | 87.21 °C | 53600
DCAF1 | 86.81 °C | 38100
DCAF1 | 54.21 °C | 19900
WDR5 | 26.4 °C | 13000
WDR5 | 52.61 °C | 16800
WDR5 | 67.21 °C | 14000
DCAF1 | 62.81 °C | 53200
DCAF1 | 36.6 °C | 10500
DCAF1 | 46.6 °C | 13700
DCAF1 | 65.61 °C | 59300

Sample 2
Compound: CC(C)(C)c1ccc(Oc2ccc3c(c2)OC(O)(C(=O)O)C(=O)N3Cc2ccccc2)cc1 (centres unmarked)
Organism: Arabidopsis thaliana
Strain: Col-0
setting | hypocotyl length
50 µg/mL, seed germination, single repetition | 1.63 cm and 1.62 cm and 1.68 cm
12.5 µg/mL, seed germination, single repetition | 2 cm and 1.78 cm and 1.82 cm and 1.83 cm
25 µg/mL, seed germination, single repetition | 1.77 cm and 1.73 cm and 1.75 cm and 1.72 cm and 1.7 cm
100 µg/mL, seed germination, single repetition | 1.25 cm and 1.26 cm and 1.23 cm and 1.21 cm and 1.24 cm
25 µg/mL, seed germination, repetition mean | 1.73 cm

Sample 3
Cell line: MDA-MB-468
Read-out: cell viability
Technique: CellCounting-Lite
Tested at: 666.7 nM
Temperature: 37 °C
Direction: higher = more viable cells
SMILES | luminescence signal
Cn1cc(-n2cnc3c(NCc4nc5cc(Cl)c(Cl)cc5[nH]4)nc(N4CCNCC4)nc32)cn1 | 48500 a.u. and 33300 a.u. and 38300 a.u.
CCn1cnc2c(NCc3nc4ccc(F)c(F)c4[nH]3)nc(N3CCn4ncnc4C3)nc21 | 29900 a.u. and 35800 a.u. and 28800 a.u.
CCn1cnc2c(NCc3nc4cc(F)c(F)cc4[nH]3)nc(N3CCn4ncnc4C3)nc21 | 32200 a.u. and 27700 a.u. and 34700 a.u.
CCn1cnc2c(NCc3nc4cc(Cl)c(Cl)cc4[nH]3)nc(N3CCN(C(=O)[C@H](C)NC(C)=O)CC3)nc21 | 54900 a.u. and 49600 a.u. and 40000 a.u.
CCn1cnc2c(NCc3nc4cc(Cl)c(Cl)cc4[nH]3)nc(N3CCN(C(=O)c4ccccc4)CC3)nc21 | 39800 a.u. and 35400 a.u. and 34100 a.u.
CC(=O)N1CCN(c2nc(NCc3nc4cc(Cl)c(Cl)cc4[nH]3)c3ncn(C)c3n2)CC1 | 30700 a.u. and 37200 a.u. and 44100 a.u.
CCn1cnc2c(NCc3nc4cc(Cl)c(Cl)cc4[nH]3)nc(N3CCN(C(C)=O)CC3)nc21 | 39400 a.u. and 37400 a.u. and 36500 a.u.
CCn1cnc2c(NCc3nc4cc(Cl)c(Cl)cc4[nH]3)nc(N3CCN(Cc4ccncc4)CC3)nc21 | 31300 a.u. and 32500 a.u. and 41600 a.u.
CCn1cnc2c(NCc3nc4cc(Cl)c(Cl)cc4[nH]3)nc(N3CCN(S(C)(=O)=O)CC3)nc21 | 41300 a.u. and 34400 a.u. and 43500 a.u.

Sample 4
SMILES: CCN1/C(=C/C=C2\CCCC(/C=C/C3=[N+](CC)c4ccccc4C3(C)C)=C2NCCCCCCCCN2CCC(Nc3nc4ccccc4n3Cc3ccc(F)cc3)CC2)C(C)(C)c2ccccc21
Cell line: U-87 MG
Tested at: concentration not given
Baseline: DMSO
assay | log2 fold change
measured: ERLIN1 mRNA | -0.835
measured: TSPAN4 mRNA | -1.41
measured: RNF13 mRNA | 0.918
measured: ABI3 mRNA | -2.74
measured: UBB mRNA | 0.915
measured: IL22RA1 mRNA | -1.98
measured: RAB38 mRNA | 2.57
measured: MRGPRF mRNA | -3.39
measured: ARNTL mRNA | 1.24
measured: ZBTB12 mRNA | -1.5
measured: ZDBF2 mRNA | 1.09
measured: TNFAIP8L1 mRNA | -1.31
measured: WTAP mRNA | 1.09
measured: MAFF mRNA | 2.13
measured: IL24 mRNA | 2.94
measured: NGEF mRNA | -1.45

Sample 5
SMILES: CC[C@@]1(c2cccc(-c3c(F)cncc3OC)c2)C2=C(Nc3n[nH]cc31)[C@H](F)C(C)(C)CC2=O (single isomer, unassigned)
Tested at: 1 µM
target | assay | how to read | remaining binding [%]
Tyrosine-protein kinase ABL2 (ABL2, Homo sapiens, UniProt P42684) | binding, competition with immobilised ligand | – | 82
Phosphatidylinositol 3-kinase C2 domain-containing subunit gamma (PIK3C2G, Homo sapiens, UniProt O75747) | binding, competition with immobilised ligand | – | 88
Megakaryocyte-associated tyrosine-protein kinase (MATK, Homo sapiens, UniProt P42679) | binding, competition with immobilised ligand | – | 24
Mitogen-activated protein kinase 10 (MAPK10, Homo sapiens, UniProt P53779) | kinase binding, KINOMEscan | baseline: DMSO control | 63
Epidermal growth factor receptor (EGFR, Homo sapiens, UniProt P00533, del747-752/P753S) | binding, competition with immobilised ligand | – | 89
Cyclin-dependent kinase 19 (CDK19, Homo sapiens, UniProt Q9BWU1) | KINOMEscan | – | 71
Serine/threonine-protein kinase ULK3 (ULK3, Homo sapiens, UniProt Q6PHR2) | binding, competition with immobilised ligand | – | 48
Mast/stem cell growth factor receptor Kit (KIT, Homo sapiens, UniProt P10721, D816H) | kinase binding, KINOMEscan | baseline: DMSO control | 65
Phosphatidylinositol 4,5-bisphosphate 3-kinase catalytic subunit gamma isoform (PIK3CG, Homo sapiens, UniProt P48736) | kinase binding, KINOMEscan | baseline: DMSO control | 70
Phosphatidylinositol 3-kinase catalytic subunit type 3 (PIK3C3, Homo sapiens, UniProt Q8NEB9) | kinase binding, KINOMEscan | baseline: DMSO control | 56
Serine/threonine-protein kinase PLK3 (PLK3, Homo sapiens, UniProt Q9H4B4) | kinase binding, KINOMEscan | baseline: DMSO control | 60
Misshapen-like kinase 1 (MINK1, Homo sapiens, UniProt Q8N4C8) | binding, competition with immobilised ligand | – | 41
Tyrosine-protein kinase Fes/Fps (FES, Homo sapiens, UniProt P07332) | binding, competition with immobilised ligand | – | 100
Tyrosine-protein kinase ABL1, phosphorylated (ABL1, Homo sapiens, UniProt P00519) | binding, competition with immobilised ligand | – | 95
Phosphorylase b kinase gamma catalytic chain, liver/testis isoform (PHKG2, Homo sapiens, UniProt P15735) | binding, competition with immobilised ligand | – | 86
Cyclin-dependent kinase 5 (CDK5, Homo sapiens, UniProt Q00535) | kinase binding, KINOMEscan | baseline: DMSO control | 70
Phosphatidylinositol 4,5-bisphosphate 3-kinase catalytic subunit alpha isoform (PIK3CA, Homo sapiens, UniProt P42336, C420R) | kinase binding, KINOMEscan | baseline: DMSO control | 88
Focal adhesion kinase 1 (PTK2, Homo sapiens, UniProt Q05397) | kinase binding, KINOMEscan | baseline: DMSO control | 86

Further values, each from its own experiment
SLC6A19: Sodium-dependent neutral amino acid transporter B(0)AT1 (SLC6A19, Homo sapiens, UniProt Q695T7)
UniProt Q695T7, sequence (whole entry, looked up): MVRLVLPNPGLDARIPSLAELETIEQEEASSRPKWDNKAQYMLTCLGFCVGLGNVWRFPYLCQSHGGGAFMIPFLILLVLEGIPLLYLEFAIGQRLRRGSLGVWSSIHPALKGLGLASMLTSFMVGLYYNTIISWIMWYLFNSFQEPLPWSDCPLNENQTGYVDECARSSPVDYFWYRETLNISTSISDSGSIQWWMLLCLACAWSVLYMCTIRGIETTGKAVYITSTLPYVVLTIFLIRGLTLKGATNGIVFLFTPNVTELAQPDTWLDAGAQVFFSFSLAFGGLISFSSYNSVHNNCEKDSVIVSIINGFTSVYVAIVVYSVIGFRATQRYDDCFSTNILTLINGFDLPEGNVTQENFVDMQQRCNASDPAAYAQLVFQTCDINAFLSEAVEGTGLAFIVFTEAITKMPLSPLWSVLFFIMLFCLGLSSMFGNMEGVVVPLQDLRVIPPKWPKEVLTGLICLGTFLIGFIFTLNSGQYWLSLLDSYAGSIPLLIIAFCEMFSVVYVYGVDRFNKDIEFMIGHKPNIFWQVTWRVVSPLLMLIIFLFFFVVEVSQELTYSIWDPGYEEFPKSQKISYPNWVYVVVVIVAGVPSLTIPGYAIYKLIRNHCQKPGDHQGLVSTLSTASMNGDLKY
MPO: Myeloperoxidase (MPO, Homo sapiens, UniProt P05164)
UniProt P05164, sequence (whole entry, looked up): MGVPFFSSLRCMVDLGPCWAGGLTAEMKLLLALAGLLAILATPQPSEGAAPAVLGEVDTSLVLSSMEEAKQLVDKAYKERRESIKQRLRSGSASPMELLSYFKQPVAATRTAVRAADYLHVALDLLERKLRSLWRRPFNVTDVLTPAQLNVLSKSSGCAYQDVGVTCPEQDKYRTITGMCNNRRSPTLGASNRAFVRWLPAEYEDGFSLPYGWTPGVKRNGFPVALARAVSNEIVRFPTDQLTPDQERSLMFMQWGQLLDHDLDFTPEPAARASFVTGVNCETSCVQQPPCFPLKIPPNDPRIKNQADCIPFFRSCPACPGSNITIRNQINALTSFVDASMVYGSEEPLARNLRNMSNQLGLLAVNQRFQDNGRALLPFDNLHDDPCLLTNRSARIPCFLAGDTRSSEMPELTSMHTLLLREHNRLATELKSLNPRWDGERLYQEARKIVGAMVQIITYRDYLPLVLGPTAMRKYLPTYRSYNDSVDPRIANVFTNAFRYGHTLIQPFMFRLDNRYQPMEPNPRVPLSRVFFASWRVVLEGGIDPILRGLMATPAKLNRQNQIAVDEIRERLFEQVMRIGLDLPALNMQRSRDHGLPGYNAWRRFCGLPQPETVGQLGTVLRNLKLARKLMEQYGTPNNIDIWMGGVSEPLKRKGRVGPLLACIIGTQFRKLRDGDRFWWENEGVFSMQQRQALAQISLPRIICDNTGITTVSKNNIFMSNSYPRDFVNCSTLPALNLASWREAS
SMILES | target or system | assay | system | setting | how to read | measurement | value
COc1cc(-c2nc3ccc(C(=O)NCCCN(C)C)cc3n2C2CCC2)cc(OC)c1OC | Leukocyte tyrosine kinase receptor (LTK, Homo sapiens, UniProt P29376) | NanoBRET | – | 1 µM | – | receptor occupancy | -4.55%
Cc1cc(OCC(=O)OC(C)C)cc(C)c1Cl | SLC6A19 | inhibitor, FLIPR membrane potential | CHO-BC cells | 30 µM | – | normalised transport activity | 1.01
O=c1[nH]c(=S)n(C[C@H]2CCCO2)c2nc[nH]c12 | Amine oxidase [copper-containing] 3 (AOC3, Homo sapiens, UniProt Q16853) | enzyme activity, Amplex Red H2O2 production | – | 0.3704 µM | – | inhibition | 11.8%
CC(C)NC(=O)COc1ccc2ccccc2c1 | SLC6A19 | inhibitor, FLIPR membrane potential | CHO-BC cells | 0.003 µM, unit not given | baseline: uninhibited cells | remaining transport activity | 1.06
Cc1ccc(O)c(C)c1-c1cnc2[nH]c(-c3cnc(N4CCC5(CC4)CC(N4CCN(c6ccc(NC7CCC(=O)NC7=O)cc6F)CC4)CO5)nc3)cc2c1C#N (centres unmarked) | – | – | simulated gastric fluid | 12 h | – | remaining compound | 87%
CC(C)NC(=O)COc1cccc2ccccc12 | SLC6A19 | inhibitor, FLIPR membrane potential | CHO-BC cells | 0.001 µM, unit not given | baseline: uninhibited cells | remaining transport activity | 0.963
Cc1ncsc1-c1ccc(C(CO)NC(=O)C2CC(O)CN2C(=O)C(C(C)C)n2cc(-c3ccc(COc4c(-c5c(C)c(F)cc6[nH]ncc56)c(C5CC5)cc5c(N6CC7CC6CN7)nc(OC6CCOCC6)nc45)cc3)nn2)cc1 (centres unmarked) | – | – | mouse PK-59 xenograft, plasma | intravenous, 10 mg/kg, 144 h | – | plasma concentration | 0 ng/mL
NC/C(=C\F)COc1ccc(C(F)(F)F)c(Cn2c(=S)[nH]c(=O)c3[nH]cnc32)c1 | MPO | enzyme activity, inhibitor, fluorescence | – | – | – | IC50 | 0.06 µM
Cc1ccc(O)c(C)c1-c1cnc2[nH]c(-c3cnc(N4CCC(CN5CCN(c6cc7c(cc6F)n(C6CCC(=O)NC6=O)c(=O)n7C)CC5)CC4)nc3)cc2c1C#N (centres unmarked) | Membrane-associated tyrosine- and threonine-specific cdc2-inhibitory kinase (PKMYT1, Homo sapiens, UniProt Q99640) | degrader, automated immunoblot | HCC1569 | 100.00 nM | – | degradation | 90.9%
Cc1ncsc1-c1ccc(C2(NC(=O)C3CC(O)CN3C(=O)C(NC(=O)c3ccc(COc4c(-c5c(C)c(F)cc6[nH]ncc56)c(C5CC5)cc5c(N6CC7CC6CN7)nc(OC6CCOCC6)nc45)cc3)C(C)(C)C)CC2)cc1 (centres unmarked) | von Hippel-Lindau disease tumor suppressor, with Elongin B/C (VHL, Homo sapiens, UniProt P40337) | binding, SPR, single-cycle | – | binary, geometric mean, added: immobilized VCB complex | – | Kd | 1.45 µM
CCNC(=O)COc1cc(C)c(Cl)c(C)c1 | SLC6A19 | inhibitor, L-[14C]leucine uptake | CHO-BC cells | 0.3 µM, 6 min, unit not given, added: GPNA 3 mM, JPH203 3 µM | baseline: uninhibited cells | remaining transport activity | 0.633
Cc1ccc(O)c(C)c1-c1cnc2[nH]c(-c3cnc(N4CC5(CC(CN6CCN(c7ccc(NC8CCC(=O)NC8=O)cc7F)CC6)C5)C4)nc3)cc2c1C#N (centres unmarked) | – | – | female CD-1 mouse, plasma | oral, 10 mg/kg | – | Cmax | 175 ng/mL
CCN1CCN(Cc2ccc(COc3c(-c4c(C)c(F)cc5[nH]ncc45)c(C4CC4)cc4c(N5C[C@@H]6C[C@H]5CN6)nc(OC5CCOCC5)nc34)cc2)C(=O)C1 | AsPC-1 (KRAS G12D) | CellTiter-Glo | – | 1 nM | – | viability | 88.1% and 88.8% and 84.8%
NC/C(=C\F)COc1cccc(Cn2c(=O)[nH]c(=O)c3[nH]cnc32)c1 | MPO | H2O2 consumption, inhibitor, Amplex Red | – | 5.081e-05 µM | – | inhibition | -3.69%
Cc1ncsc1-c1ccc(C(CO)NC(=O)C2CC(O)CN2C(=O)C(NC(=O)c2ccc(COc3c(-c4c(C)c(F)cc5[nH]ncc45)c(C4CC4)cc4c(N5CC6CC5CN6)nc(OC5CCOCC5)nc34)cc2)C(C)C)cc1 (centres unmarked) | AsPC-1 | in-cell ELISA | – | 3 µM, individual replicates | – | phospho-ERK1/2 level | 2.03% and 3.81% and 4.68% and 12.2% and 4.49% and 26.6%
Cc1nc(C)c(C=[N+]([O-])C(C)(C)C)nc1C | – | MTT | primary midbrain neurons, Sprague-Dawley rat | 100 µM, 2 h pretreatment, added: 20 µM MPP+ for 24 h | baseline: untreated control | viability | 69.1%
Cc1ccc(O)c(C)c1-c1cnc2[nH]c(-c3cnc(N)nc3)cc2c1C#N | biomarker-positive cells (CCNE1 amp, FBXW7 mut, PPP2R1A loss) | cell growth | – | 168 h, average | – | IC50 | 0.503 µM
CS(=O)(=O)c1ccc(OC/C(=C/F)CN)cc1.Cl | Amine oxidase [copper-containing] 3 (Mus musculus, UniProt O70423) | enzyme activity | mouse adipose tissue | concentration not given | – | activity response | 91%

Repeated from above (sample 4):
assay | log2 fold change
measured: UBB mRNA | 0.915
measured: IL22RA1 mRNA | -1.98
measured: RAB38 mRNA | 2.57
measured: MRGPRF mRNA | -3.39
measured: ARNTL mRNA | 1.24
measured: ZBTB12 mRNA | -1.5
measured: ZDBF2 mRNA | 1.09
measured: TNFAIP8L1 mRNA | -1.31
measured: WTAP mRNA | 1.09
measured: MAFF mRNA | 2.13
measured: IL24 mRNA | 2.94
